Experimental data pooled from the literature.
Protocols differ between the studies behind these lines. Numbers after ± are the reported error. Values after ≈ are worked out from the molar mass of the structure shown.

Cc1ccc(-c2ccc(-c3cc4sccc4o3)cn2)nc1  fluorescence lifetime (TCSPC; MeOH): 1.82 ns
Cc1ccc(OCC(=O)O)cc1  AUC(0-last) (Sprague-Dawley rat, male, plasma; oral gavage, 10 mg/kg of parent drug): 5710 ± 2120 ng·h/mL
O=[11C](OC(C(F)(F)F)C(F)(F)F)N1CCC(CNS(=O)(=O)c2ccc(Cl)cc2)CC1  uptake (PET; rhesus monkey, male, striatum; iv, 3.71 mCi): 0.81 SUV
N=C(N)NCCC[C@@H]1NC(=O)[C@H](Cc2c[nH]c3ccccc23)NC(=O)[C@@H](CC2CCCCC2)NC(=O)[C@@H]2CCCN2C(=O)[C@@H](NC(=O)CCc2ccccc2)CCCNC1=O  alpha distribution rate constant (C57BL/6J mouse, spinal cord; intraperitoneal, 1 mg/kg, single dose, two-compartment model): 4.64 h⁻¹
CC(C)[C@H](NC(=O)[C@@H]1CCCN1C(=O)[C@H](CCCNC(=N)N)NC(=O)[C@H](CS)NC(=O)[C@H](Cc1c[nH]c2ccccc12)NC(=O)[C@H](CCCNC(=N)N)NC(=O)[C@@H](Cc1ccccc1)NC(=O)[C@H](Cc1c[nH]cn1)NC(=O)[C@H](CCC(=O)O)NC(=O)[C@H](CS)NC(=O)[C@H](CS)NC(=O)CNC(=O)[C@@H]1CC(=O)N[C@@H](CCCNC(=N)N)C(=O)NCC(=O)N[C@@H](CC(=O)O)C(=O)N[C@H](Cc2ccc(O)cc2)C(=O)N1)C(N)=O [technetium-99m labelled]  tumour to tissue ratio (C57 mouse, female, B16/F1 melanoma; intravenous, 0.037 MBq, 2 h; reference: tumour over kidneys): 0.55
O=C(Nc1nccs1)C(c1cc(F)ccc1O)N1Cc2ccccc2C1=O (stereo not shown)  recovery (mouse plasma, low QC; 6 ng/mL, 1.5 months, -30 °C): 101 ± 2.9%
COC(=O)/C=C/C(=O)c1ccc(OC)cc1  recovery (LC-MS/MS; rat plasma; 400 ng/mL, time not given, 3 freeze-thaw cycles): 93.3 ± 8.9%
CCC(=O)N[C@@H](C)C(=O)OCC(=O)N[C@@H](C)C(=O)O  depolymerization half-life (water; pH 6, 37 °C): 432 h
NC12CNCCNCC(NCc3ccc(CNC(=O)CCCC(=O)NCc4ccc(-c5nncnn5)cc4)cc3)(CNCCNC1)CNCCNC2.[64Cu+2]  mean absorbed dose (OLINDA dosimetry; testes; 24 h pretargeting interval, added: huA33-TCO pretargeting): 0.0348 rad/mCi
Cn1c(=O)oc2ccc(-c3ccc(CC(C#N)NC(=O)C4CNCCCO4)c(F)c3)cc21 (stereo not shown)  acne incidence (human; oral, 20 mg once daily, treatment-related AE, multiple ascending dose): 11.1%
CCCCCCCC(=O)OC[C@H](NC(=O)[C@H](CO)NC(=O)CN)C(=O)N[C@@H](Cc1ccccc1)C(=O)N[C@@H](CC(C)C)C(=O)N[C@@H](CO)C(=O)N1CCC[C@H]1C(=O)N[C@@H](CCC(=O)O)C(=O)N[C@@H](Cc1cnc[nH]1)C(=O)N[C@@H](CCC(N)=O)C(=O)N[C@@H](CCCNC(=N)N)C(=O)N[C@H](C(=O)N[C@@H](CCC(N)=O)C(=O)N[C@@H](CCC(N)=O)C(=O)N[C@@H](CCCNC(=N)N)C(=O)N[C@@H](CCCCN)C(=O)N[C@@H](CCC(=O)O)C(=O)N[C@@H](CO)C(=O)N[C@@H](CCCCN)C(=O)N[C@@H](CCCCN)C(=O)N1CCC[C@H]1C(=O)N1CCC[C@H]1C(=O)N[C@@H](C)C(=O)N[C@@H](CCCCN)C(=O)N[C@@H](CC(C)C)C(=O)N[C@@H](CCC(N)=O)C(=O)N1CCC[C@H]1C(=O)N[C@@H](CCCNC(=N)N)C(=O)O)C(C)C  blood pressure sBP (beat-to-beat plethysmography; human chronic HFrEF patients; intravenous infusion, 0.1 µg/kg/min, after 60 min infusion): 99 ± 17.6 mm Hg
Cc1ccccc1-c1cc(N2CCNCC2)ncc1N(C)C(=O)C(C)(C)c1cc(C(F)(F)F)cc(C(F)(F)F)c1  time to terminal elimination phase (human, plasma; dose not given): 72 h
NS(=O)(=O)c1ccc(N2N=C(C(F)(F)F)CC2c2ccc(F)cc2F)cc1 (stereo not shown)  ka (population PK model; Beagle dog): 0.22 h⁻¹
CC12CC(c3ccc(S(C)(=O)=O)cc3)C3=C4CCC(=O)C=C4CCC3C1CCC2(O)C(F)(F)C(F)(F)F (stereo not shown)  AUC0–3d (human, plasma; oral, 4 mg, geometric mean, added: itraconazole 200 mg/day): 740 ng·h/mL
CCCC[C@H](NC(=O)CNC(=O)CNC(=O)CN1CCN(CC(=O)O)CCN(CC(=O)O)CC1)C(=O)N[C@H]1CC(=O)NCCCC[C@@H](C(N)=O)NC(=O)[C@H](Cc2c[nH]c3ccccc23)NC(=O)[C@H](CCCNC(=N)N)NC(=O)[C@@H](Cc2ccccc2)NC(=O)[C@H](Cc2c[nH]cn2)NC1=O [copper-64 labelled]  uptake ratio (female C57 mouse, B16/F1 melanoma; intravenous, 0.037 MBq, 0.5 h; reference: tumour over blood): 7.87
CC(NC(=O)OC1OC(C(=O)O)C(O)C(O)C1O)c1cc(Cl)ccc1Cn1c(=S)[nH]c(=O)c2[nH]ccc21 (stereo not shown)  recovery (equilibrium dialysis; male beagle dog plasma; 16 h, pH 7.4): > 84%
CCCCCCCCCCCCCCCC(=O)NCCOCCOCCOCCOCCOCCOCCOCCOCCC(=O)NCCCC[C@H](NC(=O)CNC(=O)[C@@H]1CSSC[C@H](N)C(=O)N[C@@H](Cc2ccc(O)cc2)C(=O)N[C@@H]([C@@H](C)CC)C(=O)N[C@@H](CCC(N)=O)C(=O)N[C@@H](CC(N)=O)C(=O)N1)C(=O)NCC(N)=O  steady unbound concentration (mouse, plasma; subcutaneous depot, dose not given, at least 24 h): 1 nM
CC(C)(C)NCC(SS(=O)(=O)O)c1ccccc1 (stereo not shown)  metabolic rate constant (non-specific degradation; CD1 mouse, female, liver microsomes; 4 µM, pH 7.4, without NADPH): 0.5 h⁻¹
COc1cc(-c2nc3ccc(C(=O)NCCCN4CCN(C(=O)c5ccccc5)CC4)cc3n2C2CCC2)cc(OC)c1OC  dynamic solubility: 128 µM
OC1(C(F)(F)F)CCN(c2nc(Nc3ccnc(C(F)(F)F)c3)nc(-c3cccc(C(F)(F)F)n3)n2)C1 (stereo not shown)  faecal excretion of radioactivity (Sprague-Dawley rat, both sexes, faeces; oral, 10.1 mg/kg, 168 h, added: [14C]-labelled compound; reference: dose): 95.7 ± 2.4%
Cc1[nH]nc2c1N=C(c1ccccc1Cl)c1cnc(N(CCO)CCO)cc1N2  metabolite to parent ratio (human male, plasma; oral, 10 mg, 0-120 h; reference: metabolite AUC over parent AUC): 0.07%
COC[C@@H](CC(C)C)NC(=O)c1ccc(C)c(CO)c1  metabolite peak area (LC-MS; human liver microsomes; 10 µM of parent drug, 60 min, pH 7.4, added: NADPH; reference: parent drug at time zero): 5.2%
COc1cc2c(cc1OC)CN(CCCCn1ccc3cc(OCC[18F])ccc31)C2  brain/blood ratio (ICR mice, male; intravenous, 2 min): 1.36 ± 0.08
[11CH3]c1ccc2nc(C3CCC3)n(-c3ccc4[nH]ncc4c3)c2n1  absorbed dose (extrapolated from mouse; human male, stomach wall): 5.3 µSv/MBq
COc1cc(NC(C)=O)c2c(c1O)-c1c(OC)c(OC)cc3c1C(C2)N(C)CC3 (stereo not shown)  remaining compound (rat brain homogenate; 50 µg/mL, 4 h, room temperature, short-term storage): 92.8 ± 2.4%
C=C(c1cc(F)c(C(=O)O)c(F)c1)c1cc2c(cc1C)C(C)(C)CCC2(C)C  blood cholesterol (Sprague-Dawley rat, male; oral, 100 mg/kg, 12 h, sesame oil vehicle): 65 ± 13 mg/dL
O=C(NCCCN(CCCCN(CCCNC(=O)c1cccc(=O)n1[O-])C(=O)c1cccc(=O)n1[O-])C(=O)c1cccc(=O)n1[O-])c1cccc(=O)n1[O-].[89Zr+4]  intact complex (radio-TLC; PBS; 1 h, pH 7.4, 37 °C, added: Cu^2+ 10-fold excess): 98.2 ± 2.5%
CC(C)[C@H](NC(=O)CNC(=O)[C@H](CCC(N)=O)NC(=O)[C@H](C)N)C(=O)O  half-life (LC-MS/MS; human, male, plasma; intravenous, 30 mg/kg three times daily, day 3, first dose, 10 min infusion, geometric mean): 0.27 h
CC(C)(Sc1ccncc1-c1ccc(C#N)c2ccccc12)C(=O)OC1OC(C(=O)O)C(O)C(O)C1O (stereo not shown)  renal clearance decrease (urine; oral, 15 mg, moderate renal impairment; reference: normal renal function): 60%
CN[C@@H]1[C@H](O)[C@H](NC)[C@H]2O[C@]3(O)[C@H](O[C@@H]2[C@H]1O)O[C@H](C)C[C@@]3(O)CNCc1ccc(OC(F)(F)F)cc1  fraction excreted unchanged (rat, urine; intravenous, 10 mg/kg): 0.22
O=C([O-])CN1CCN(CC(=O)[O-])CCN(CC(=O)NC[C@H]2CC[C@H](C(=O)N[C@H](Cc3cnc4ccccc4c3)C(=O)NCCCC[C@H](NC(=O)N[C@@H](CCC(=O)O)C(=O)O)C(=O)O)CC2)CCN(CC(=O)[O-])CC1.[64Cu+2]  absorbed dose (PET/CT, OLINDA/EXM dosimetry; healthy human volunteers, rectum): 0.0161 mGy/MBq
COC(=O)c1ccc2c(c1)NC(=O)/C2=C(\Nc1ccc2c(c1)CCN2C(=O)CN1CCOCC1)c1ccccc1  bioavailability (beagle dog, plasma; oral, 50 mg/kg): 21%
Cc1ccccc1/N=N/c1ccc(/N=N/c2c(O)ccc3ccccc23)c(C)c1  elimination half-life (Sprague-Dawley rats both sexes, whole blood; oral, 50 mg/kg): 2.36 h
CN1CCC[C@]1(C)/C=C/S(=O)(=O)NC(=O)Nc1c2c(cc3c1CCC3)CCC2  AUC(0-24) (human, plasma; oral, 50 mg twice daily, day 14, multiple ascending dose): 97700 ng·h/mL
CCCC[C@@H]1NC(=O)[C@@H](NC(=O)[C@H](CCC(=O)O)NC(=O)CNC(=O)CN2CCN(CC(=O)O)CCN(CC(=O)O)CCN(CC(=O)O)CC2)CCCCNC(=O)C[C@@H](C(N)=O)NC(=O)[C@H](C(C)C)NC(=O)[C@@H]2CCCN2C(=O)[C@H](CCCNC(=N)N)NC(=O)CNC(=O)[C@H](Cc2c[nH]c3ccccc23)NC(=O)[C@H](CCCNC(=N)N)NC(=O)[C@@H](Cc2ccccc2)NC(=O)[C@H](Cc2c[nH]cn2)NC(=O)[C@H](CCC(=O)O)NC1=O [gallium-67 labelled]  tissue uptake (C57 mice with B16/F1 melanoma, muscle; intravenous, 0.037 MBq, 4 h): 0.04 ± 0.01 %ID/g
CCCC[C@H](NC(=O)CNC(=O)CNC(=O)CN1CCN(CC(=O)O)CCN(CC(=O)O)CCN(CC(=O)O)CC1)C(=O)N[C@H]1CC(=O)NCCCC[C@@H](C(N)=O)NC(=O)[C@H](Cc2c[nH]c3ccccc23)NC(=O)[C@H](CCCNC(=N)N)NC(=O)[C@@H](Cc2ccccc2)NC(=O)[C@H](Cc2c[nH]cn2)NC1=O [lead-203 labelled]  urinary excretion (normal C57 mice, urine; intravenous, 0.056 MBq, 2 h): 83.9 ± 11.8%
C=CC(=O)Nc1cc(Nc2nccc(-c3cn(C)c4ccccc34)n2)c(OC)cc1N(C)CCNC  median trough concentration (UHPLC-MS/MS; human, NSCLC patients, finger-prick dried blood spot; oral, 80 mg daily, steady state, at least 14 d treatment): 18 ng/mL
CCCCCCCCCCCCCCCC(=O)N[C@@H](CCCCN)C(=O)N[C@H](C(=O)N[C@H](C(=O)N[C@@H](CCCCN)C(=O)N[C@@H](CO)C(=O)O)[C@@H](C)O)[C@@H](C)O  amount retained in stratum corneum (LC-MS/MS; hairless mouse, skin, Franz cell; 50 µg/cm^2 applied, 24 h): 4.2 ± 0.7 µg/cm²
C#CCO[C@H]1C[C@H]2[C@@H](C)C[C@H]3OC(=O)C(=C)[C@H]3C[C@]2(C)[C@H]1OCC#C  CC50 (propidium iodide flow cytometry; primary splenocytes, BALB/c mouse; 48 h, 10% fetal calf serum): 32 ± 8.9 µg/mL (≈ 93.4 µM)
CCC1CC2C(C)=CC3C(=O)CCCC3C=CC(C)=CC2C(=O)O1 (stereo not shown)  plasma concentration (ICR mouse male, plasma; intravenous, 2 mg/kg, 120 min): 4.1 ± 6.5 ng/mL
CCCC[C@H](NC(=O)CNC(=O)CNC(=O)CN1CCN(CC(=O)O)CCN(CC(=O)O)CC1)C(=O)N[C@H]1CC(=O)NCCCC[C@@H](C(N)=O)NC(=O)[C@H](Cc2c[nH]c3ccccc23)NC(=O)[C@H](CCCNC(=N)N)NC(=O)[C@@H](Cc2ccccc2)NC(=O)[C@H](Cc2c[nH]cn2)NC1=O [gallium-67 labelled]  tumour to tissue uptake ratio (C57 mice, female, B16/F1 melanoma, tumour over muscle; intravenous, 0.037 MBq, 4 h): 54.7
NS(=O)(=O)c1ccc(-n2nc(C(F)(F)F)cc2-c2ccc(F)cc2F)cc1  metabolite formation rate (substrate; human liver microsomes; 20 µM, 0 to 30 min, pH 7.4): 33.7 pmol/min/mg
C[C@H](Oc1cc(-c2cnn(C3CCN(CC[18F])CC3)c2)cnc1N)c1c(Cl)ccc(F)c1Cl  tracer uptake (PET imaging; nude mouse, heart; iv, 5 min post injection): 5.2 ± 1 %ID/cc

A few entries again:
CC(C)[C@H](NC(=O)CNC(=O)[C@H](CCC(N)=O)NC(=O)[C@H](C)N)C(=O)O  half-life (LC-MS/MS; human, male, plasma; intravenous, 30 mg/kg three times daily, day 3, first dose, 10 min infusion, geometric mean): 0.27 h
C=CC(=O)Nc1cc(Nc2nccc(-c3cn(C)c4ccccc34)n2)c(OC)cc1N(C)CCNC  median trough concentration (UHPLC-MS/MS; human, NSCLC patients, finger-prick dried blood spot; oral, 80 mg daily, steady state, at least 14 d treatment): 18 ng/mL
COC(=O)/C=C/C(=O)c1ccc(OC)cc1  recovery (LC-MS/MS; rat plasma; 400 ng/mL, time not given, 3 freeze-thaw cycles): 93.3 ± 8.9%
